# Results of several laboratories.
# Parts stem from different laboratories: compare values within a part only. Substitutions count along the parent as printed.

# Series 1 — technique: competition protein-binding microarray; molecule type: double-stranded DNA, one strand shown; medium: in vitro; tested at: 2 µM; together with: Cbf1 competitor, 0.05 µM; reading: higher = stronger binding
# Target: Phosphate system positive regulatory protein PHO4, full length, GST-tagged (PHO4, Saccharomyces cerevisiae, UniProt P07270, residues 1-312)
# Setting: whole 60-bp probe, lowest competitor level
# Construct (chain): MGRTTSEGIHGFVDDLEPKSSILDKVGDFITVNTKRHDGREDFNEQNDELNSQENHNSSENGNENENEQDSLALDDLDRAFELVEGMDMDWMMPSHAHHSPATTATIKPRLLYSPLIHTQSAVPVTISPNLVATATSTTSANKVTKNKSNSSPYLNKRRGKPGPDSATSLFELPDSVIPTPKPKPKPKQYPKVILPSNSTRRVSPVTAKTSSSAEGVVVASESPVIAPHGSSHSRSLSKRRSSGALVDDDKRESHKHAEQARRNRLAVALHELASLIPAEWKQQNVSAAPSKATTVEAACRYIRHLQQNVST
Strand,fluorescence intensity
CGTCCTAGCGATTGAATCGTGGGTGCCATGAGGAAGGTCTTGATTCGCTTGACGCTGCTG,8560 a.u.
CGGGGTTAAGTTTTTCACGTGCGTTGCTTGCAGCAGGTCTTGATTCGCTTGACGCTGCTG,15300 a.u.
CTTCTGTAAATTTGCCGGGTGGGTGGACGCGCCCCGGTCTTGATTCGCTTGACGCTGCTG,4950 a.u.
GCTGACCCTATAACGCGCGTGAAGTAACAGCGATCTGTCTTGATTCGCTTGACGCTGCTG,5040 a.u.
CTTTCCCGATCTTGTAAAGTGGGTGTAGCACATTTGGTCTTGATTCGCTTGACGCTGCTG,4370 a.u.
CTTCTGTAAATTTGGCATGTGGGTGGACGCGCCCCGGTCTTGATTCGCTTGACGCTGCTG,10600 a.u.
CTAACGAAGGTTTGAGGTGTGGGTGACAAGCCAAGTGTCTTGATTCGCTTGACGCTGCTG,4890 a.u.
GATTTTGTTCTTTGTCATGTGATTTTAATCTGTCAAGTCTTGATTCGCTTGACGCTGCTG,6080 a.u.
CATACCCAACCTTGTCACGGTACTTAAGATATTTGTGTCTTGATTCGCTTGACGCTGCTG,4710 a.u.
CTTTCCCGATCTTTTCACGTGTATTTAGCACATTTGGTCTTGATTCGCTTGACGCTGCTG,15000 a.u.
CTTCTGTAAATTTGTCACCCTACTTGACGCGCCCCGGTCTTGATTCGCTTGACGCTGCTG,4170 a.u.
GCTAATCGGCTATTTGACATGATGTCTTCCTTTCCTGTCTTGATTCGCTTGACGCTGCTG,5120 a.u.
CAAATCGAAACCACCATCGTGTCCTTCCTTGGGAACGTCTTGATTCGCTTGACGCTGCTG,9080 a.u.
AAACTAATGGATTGGCGCGTGTACTATATATATTCAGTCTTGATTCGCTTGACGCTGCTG,9820 a.u.
CGGGCCTCAGGCAGCCACGAGGTAGACGGGCTCAGGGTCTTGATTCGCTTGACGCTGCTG,10000 a.u.
CGTCCTAGTGATTGTCACGGGACTTCCATGAGGAAGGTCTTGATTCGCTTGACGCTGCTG,5490 a.u.
CTTTCCCGATCTTGATAAGTGGGTGTAGCACATTTGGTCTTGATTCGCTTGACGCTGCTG,4790 a.u.
TGCGCAACAACTTGCACTGTGGGTGTATGTCTAGAAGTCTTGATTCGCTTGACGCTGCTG,4880 a.u.
TACCCTTGCACCTTCCACAACCATATTTTTGGTCTAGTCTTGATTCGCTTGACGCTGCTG,4370 a.u.

# Series 2 — technique: RNA Bind-n-Seq; molecule type: RNA; medium: in vitro; tested at: not given; setting: RNA with constant flanks, ends assumed; baseline: input RNA pool; reading: higher = stronger binding
# Target: RING finger protein unkempt homolog, zinc fingers 1-6, GST-SBP tag (UNK, Homo sapiens, UniProt Q9C0B0, residues 30-357)
# Target sequence (chain): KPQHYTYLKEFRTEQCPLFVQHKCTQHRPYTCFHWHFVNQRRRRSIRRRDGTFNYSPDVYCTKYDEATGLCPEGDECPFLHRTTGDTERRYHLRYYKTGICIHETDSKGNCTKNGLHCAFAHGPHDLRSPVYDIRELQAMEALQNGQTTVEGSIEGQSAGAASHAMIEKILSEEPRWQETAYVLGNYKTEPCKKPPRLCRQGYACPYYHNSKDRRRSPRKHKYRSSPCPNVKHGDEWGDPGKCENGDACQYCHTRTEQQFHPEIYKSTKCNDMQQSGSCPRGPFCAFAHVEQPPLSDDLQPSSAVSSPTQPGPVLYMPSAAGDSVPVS
Strand,bound/input enrichment [ratio]
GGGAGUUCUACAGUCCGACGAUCCAGAAACUUUGUGAAAUUGAGAGGAUACAUUUUUUUCUAAGUAAGAAGAAAACCGAUGAACUCCGAAAUCUACACAAACUGCUUUACAACAGGCCAGGCACUGUGUCCUCAUUAAAGAAGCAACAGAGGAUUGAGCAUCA,0.261
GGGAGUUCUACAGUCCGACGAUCAAGGUGCUUGAACCAUAUCCAUCAAAAUUAAGCGGCCUGAAAGGGAAAAAUAUCUUCCCCGCCGCUGCUACACUCAGACCUGAGACUAUGUUUGGGCAGACAAAUUGUUGGGUUCGGCCUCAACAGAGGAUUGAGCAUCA,0.22
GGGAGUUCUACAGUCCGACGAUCGGCCUGGGACCGUCCUGGGCUAGUACAAAUAGCGGCAGUGGAGGCUCGAGAGGAAAGUUUGUCCGUGGAGGCAGUGGUAGAGGCCGUCAUGUACGGUCCUUUACUCGAUAGAUGUGUUCUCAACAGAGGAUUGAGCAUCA,0.303
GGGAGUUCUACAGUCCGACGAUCUCUCUUGCUACUUGCCAGUUAUCUGAGCCAUUGUUGUGGUUUAUCUUGAGAGUGUUGGAUACCCGUGAUGCAUUGAAAGCUUUCCAUGAUAUGGGUGGAGUUCAGCUCAUAUGCAAUAAUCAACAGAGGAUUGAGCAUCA,0.132
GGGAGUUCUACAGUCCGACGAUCCCAAGAAUUCCAAACAUGCCUGACAAUCUUGUCCCCUUAUUGUAAUAAAGAGGGAUACCAUCAGUCCCGAUUUUAUUGAGAAUCCUUAAGAUUUAAAGCAUAGCUGUGGAUGUGGUGAAGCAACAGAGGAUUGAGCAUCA,0.304
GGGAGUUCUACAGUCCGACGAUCGCAGGAGCAUCAGUAGACCUAACAAUUUUCUCCCUUCAUUUAGCUGGAGUGUCAUCUAUUUCCGGUGCAAUUAAUUUUAUUACCACUAUUAUCAACAUGAAACCCCCAGCCAUAACACAGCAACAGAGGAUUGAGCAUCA,1.12
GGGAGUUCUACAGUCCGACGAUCGGUAACCAGAGAAAAGUUCCUUUCUGAAUGGAGAGCUCUCCUCACUGCUCCAGCACCAUACUCCGAACCCUCACUCUCUUUCAAAAGAAUGGCAGUUGAGAUUCACUGGCCCUCAGGGGACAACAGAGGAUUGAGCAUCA,0.0866
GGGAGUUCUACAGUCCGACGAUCCACUCUUCUCCCUGUUUCUAUUCCCUGACCCCUGAGUAGCUGUAGUUUCCCCUGUAGCUUCCGCUAAAUAUCAAGCAACUCCACAAGCUUCUUAAGAAGCCAUGGACACCAAGUAGCACACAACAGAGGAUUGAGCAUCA,0.799
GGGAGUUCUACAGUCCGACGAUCUUCAUUCUGCUAUUCCAGAGACUUCAGAAUUCCAAAACAACCAAGUUUAUCAAGAGUUUUUCCGUCUUUAUUAAUUUGUAUUGCAUAAAAUAUGGGGCACUAGCACUACAAGAAAUAUUUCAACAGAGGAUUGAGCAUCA,0.995
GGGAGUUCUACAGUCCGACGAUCCUCAAGAAAACAUCUUCAAGUGACUAUUCAAUUUUCGACAACUAUUAUAUUCCAGAAAUAACCCGUGUUUUACUACUUCGAUCCUGUAAGACUUUAACCCAUGAGAUCGGACACAUAUUUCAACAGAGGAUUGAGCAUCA,0.644
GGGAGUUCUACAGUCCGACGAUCAGUAGAGAGAUAACAAAAGCUGCUCAGAGUCUCAAUGAACUUGAUUAUCUUUCUCAAGGAACCGAUCUUUCUGGAAUAGAAGUAAUAGAGAAUGAUCUACUCUUUAUUGCAAGAGCUCGACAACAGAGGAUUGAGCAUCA,0.178

# Series 3 — target: CCNE1, cyclin fold, Cln2 fusion (human); technique: yeast growth competition, sequencing; medium: yeast; setting: strong parent motif; baseline: not given; reading: higher = stronger binding
# Starting sequence: INSM1 docking peptide (human); PKAIRKLHFEDEV; partner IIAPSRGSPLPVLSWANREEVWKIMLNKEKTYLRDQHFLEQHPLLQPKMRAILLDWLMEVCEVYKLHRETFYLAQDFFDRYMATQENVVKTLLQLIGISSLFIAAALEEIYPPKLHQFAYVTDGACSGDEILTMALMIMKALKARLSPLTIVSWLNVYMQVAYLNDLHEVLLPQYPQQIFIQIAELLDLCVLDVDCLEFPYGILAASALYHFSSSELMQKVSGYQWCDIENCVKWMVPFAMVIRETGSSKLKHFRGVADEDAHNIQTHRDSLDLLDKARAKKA
Variant,normalised enrichment score
PKAIRKLSFEDEV [H8S],4.53
PKAIRKLHKEDEV [F9K],-0.111
PKAIRKLHFEDKV [E12K],3.07
PKAIRKSHFEDEV [L7S],0.0447
PKAIRKLHFEIEV [D11I],3.37
PKAIRKLHFEHEV [D11H],2.56
PKAIRKKHFEDEV [L7K],0.275
PKAIRKLMFEDEV [H8M],4.7
PKTIRKLHFEDEV [A3T],2.47
PKAINKLHFEDEV [R5N],-0.000731
PKAIRKLHFCDEV [E10C],3.15
PKAIRKLHFEGEV [D11G],3.03
PKAIRKLHFESEV [D11S],3.5
PKAIRKLHFEWEV [D11W],3.96
PKAIRKLHMEDEV [F9M],0.406
PKWIRKLHFEDEV [A3W],2.6
PKAKRKLHFEDEV [I4K],6.27
PKAIRKLHTEDEV [F9T],-0.174
PQAIRKLHFEDEV [K2Q],3.97
PKAIWKLHFEDEV [R5W],0.149
PKAIRFLHFEDEV [K6F],3.22
PKAIRKNHFEDEV [L7N],-0.00931
PKAIRKLHPEDEV [F9P],-0.0542
PKAIRKHHFEDEV [L7H],-0.202
PKAMRKLHFEDEV [I4M],3.95

# Series 4 — technique: universal PBM; molecule type: double-stranded DNA, one strand shown; medium: in vitro; tested at: 600 nM; reading: higher = stronger binding
# Target: Sal-like protein 4, full length isoform A (SALL4, Homo sapiens, UniProt Q9UJQ4, residues 1-1053)
# Sequence of UniProt Q9UJQ4 (whole entry, looked up): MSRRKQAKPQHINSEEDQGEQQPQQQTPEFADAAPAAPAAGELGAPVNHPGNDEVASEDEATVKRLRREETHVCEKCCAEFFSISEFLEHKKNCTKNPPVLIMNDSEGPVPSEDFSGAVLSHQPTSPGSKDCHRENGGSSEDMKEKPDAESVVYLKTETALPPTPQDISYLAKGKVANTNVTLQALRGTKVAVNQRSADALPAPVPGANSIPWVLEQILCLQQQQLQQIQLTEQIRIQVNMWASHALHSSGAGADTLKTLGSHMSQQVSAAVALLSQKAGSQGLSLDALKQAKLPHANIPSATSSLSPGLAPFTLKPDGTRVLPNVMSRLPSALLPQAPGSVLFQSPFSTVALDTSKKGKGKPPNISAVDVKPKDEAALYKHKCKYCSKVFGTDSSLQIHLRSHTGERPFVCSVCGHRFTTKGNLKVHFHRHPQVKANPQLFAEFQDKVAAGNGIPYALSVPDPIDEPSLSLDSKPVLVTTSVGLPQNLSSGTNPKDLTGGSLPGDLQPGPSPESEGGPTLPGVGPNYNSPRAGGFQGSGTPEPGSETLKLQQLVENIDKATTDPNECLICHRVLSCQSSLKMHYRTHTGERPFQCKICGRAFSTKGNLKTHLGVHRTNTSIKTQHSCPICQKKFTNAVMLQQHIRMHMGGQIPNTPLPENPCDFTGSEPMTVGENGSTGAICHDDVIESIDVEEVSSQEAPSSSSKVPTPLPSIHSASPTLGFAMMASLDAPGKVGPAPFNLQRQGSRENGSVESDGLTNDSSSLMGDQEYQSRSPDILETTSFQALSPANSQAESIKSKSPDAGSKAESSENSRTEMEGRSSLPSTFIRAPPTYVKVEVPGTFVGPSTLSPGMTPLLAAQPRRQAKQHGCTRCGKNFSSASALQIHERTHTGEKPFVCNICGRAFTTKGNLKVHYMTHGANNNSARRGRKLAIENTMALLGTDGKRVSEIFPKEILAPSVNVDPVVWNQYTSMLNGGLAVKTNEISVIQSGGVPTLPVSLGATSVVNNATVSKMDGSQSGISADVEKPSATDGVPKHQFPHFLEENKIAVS
# Setting: 8-mer, flanks averaged, mean of replicates
Strand,E-score
CCGGATCC,-0.288
CATGCACA,0.0599
AAGAGCAA,0.00534
GGAGCGGA,-0.315
AAATACCA,0.242
CGTGCGCA,-0.225
ACGCGAGT,-0.138
GATTAGCA,0.102
AAGAGGCT,-0.0449
GCTGGACC,-0.309
CAAACTAC,0.0394
CCCTGTAC,-0.243
CCAAACCA,-0.0533
AAGCCGAG,-0.315
ATTACGCA,0.223
GAACCCAA,-0.179

# Series 5 — technique: DHFR PCA, deep sequencing; medium: yeast; together with: (+)-ABA 0.39 µM; baseline: wild-type fitted maximum; reading: higher = stronger binding
# Target: ABI1, truncated, D143A, DHFR fusion (Arabidopsis thaliana)
# Setting: methotrexate growth selection, single substitutions
# Starting sequence: PYL1, truncated, DHFR fusion (Arabidopsis thaliana); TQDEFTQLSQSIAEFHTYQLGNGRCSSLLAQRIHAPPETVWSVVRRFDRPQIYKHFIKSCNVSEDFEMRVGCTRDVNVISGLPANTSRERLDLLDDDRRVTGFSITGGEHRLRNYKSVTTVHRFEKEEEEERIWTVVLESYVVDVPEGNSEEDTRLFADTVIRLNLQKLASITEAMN; partner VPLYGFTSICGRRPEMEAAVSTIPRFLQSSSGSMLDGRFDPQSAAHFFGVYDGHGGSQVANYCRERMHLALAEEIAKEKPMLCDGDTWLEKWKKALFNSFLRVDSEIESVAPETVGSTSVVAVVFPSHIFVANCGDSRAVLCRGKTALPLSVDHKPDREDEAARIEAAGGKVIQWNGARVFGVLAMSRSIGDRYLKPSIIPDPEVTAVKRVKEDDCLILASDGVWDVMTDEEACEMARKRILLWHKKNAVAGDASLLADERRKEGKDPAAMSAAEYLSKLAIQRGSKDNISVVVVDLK
Variant,relative binding score [%]
K58W,-5.84
I162N,2.8
T173M,-9.04
R163F,-31.4
A84N,23.6
V70W,7.34
D3I,21.6
R49N,22.5
F15E,-0.539
L20I,52.3
